{"data": "Measurements from different studies", "note": "A part holds a random share of what one study measured. Values joined by “and” are separate records of one study, mostly repeats; a detail may differ.", "sequence of UniProt P50750 (whole entry, looked up)": "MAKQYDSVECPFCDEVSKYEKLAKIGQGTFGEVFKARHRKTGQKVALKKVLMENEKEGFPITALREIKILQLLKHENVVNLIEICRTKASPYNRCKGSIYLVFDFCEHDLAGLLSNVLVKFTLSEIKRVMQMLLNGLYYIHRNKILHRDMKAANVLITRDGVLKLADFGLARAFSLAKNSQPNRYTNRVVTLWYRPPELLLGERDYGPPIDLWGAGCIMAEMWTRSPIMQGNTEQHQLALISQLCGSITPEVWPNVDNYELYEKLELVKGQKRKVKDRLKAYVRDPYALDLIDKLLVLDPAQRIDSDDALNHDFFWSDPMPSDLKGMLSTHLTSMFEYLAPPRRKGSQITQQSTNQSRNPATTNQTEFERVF", "sequence of UniProt Q8TDX7 (whole entry, looked up)": "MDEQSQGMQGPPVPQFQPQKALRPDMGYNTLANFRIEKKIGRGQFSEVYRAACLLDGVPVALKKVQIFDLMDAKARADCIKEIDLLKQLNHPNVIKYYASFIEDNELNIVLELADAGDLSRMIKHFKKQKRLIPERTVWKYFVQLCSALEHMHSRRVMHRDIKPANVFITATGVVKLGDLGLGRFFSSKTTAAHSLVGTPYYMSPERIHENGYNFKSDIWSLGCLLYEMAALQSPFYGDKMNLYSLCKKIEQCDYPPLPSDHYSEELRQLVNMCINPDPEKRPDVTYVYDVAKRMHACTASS", "sequence of UniProt O75385 (whole entry, looked up)": "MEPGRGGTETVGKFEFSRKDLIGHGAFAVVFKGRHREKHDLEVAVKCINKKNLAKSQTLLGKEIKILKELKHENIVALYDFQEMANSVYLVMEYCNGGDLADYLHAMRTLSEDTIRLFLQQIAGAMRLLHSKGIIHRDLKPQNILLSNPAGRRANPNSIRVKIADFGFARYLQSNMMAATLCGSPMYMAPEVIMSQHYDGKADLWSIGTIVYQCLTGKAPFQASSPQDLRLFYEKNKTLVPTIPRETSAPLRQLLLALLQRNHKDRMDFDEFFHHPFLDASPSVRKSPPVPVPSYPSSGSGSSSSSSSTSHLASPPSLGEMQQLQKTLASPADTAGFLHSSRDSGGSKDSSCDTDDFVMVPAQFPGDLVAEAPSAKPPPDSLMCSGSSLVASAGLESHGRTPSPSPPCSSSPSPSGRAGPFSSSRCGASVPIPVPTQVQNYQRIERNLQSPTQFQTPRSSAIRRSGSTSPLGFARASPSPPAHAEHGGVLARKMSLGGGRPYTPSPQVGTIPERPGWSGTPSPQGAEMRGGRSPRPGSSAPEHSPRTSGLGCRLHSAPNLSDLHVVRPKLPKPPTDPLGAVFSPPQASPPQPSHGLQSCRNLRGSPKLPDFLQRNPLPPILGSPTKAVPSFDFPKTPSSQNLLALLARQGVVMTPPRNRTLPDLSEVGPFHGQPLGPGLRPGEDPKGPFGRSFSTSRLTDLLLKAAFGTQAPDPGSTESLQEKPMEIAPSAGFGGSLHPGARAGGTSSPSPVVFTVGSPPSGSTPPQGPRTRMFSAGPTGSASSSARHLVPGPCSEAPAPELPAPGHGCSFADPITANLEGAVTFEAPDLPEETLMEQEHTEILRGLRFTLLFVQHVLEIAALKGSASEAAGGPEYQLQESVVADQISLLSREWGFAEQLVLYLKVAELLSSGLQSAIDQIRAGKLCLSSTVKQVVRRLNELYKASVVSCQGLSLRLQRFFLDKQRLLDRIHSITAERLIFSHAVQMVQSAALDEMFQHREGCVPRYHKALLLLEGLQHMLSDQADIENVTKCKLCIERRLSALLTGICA", "sequence of UniProt O14578 (whole entry, looked up)": "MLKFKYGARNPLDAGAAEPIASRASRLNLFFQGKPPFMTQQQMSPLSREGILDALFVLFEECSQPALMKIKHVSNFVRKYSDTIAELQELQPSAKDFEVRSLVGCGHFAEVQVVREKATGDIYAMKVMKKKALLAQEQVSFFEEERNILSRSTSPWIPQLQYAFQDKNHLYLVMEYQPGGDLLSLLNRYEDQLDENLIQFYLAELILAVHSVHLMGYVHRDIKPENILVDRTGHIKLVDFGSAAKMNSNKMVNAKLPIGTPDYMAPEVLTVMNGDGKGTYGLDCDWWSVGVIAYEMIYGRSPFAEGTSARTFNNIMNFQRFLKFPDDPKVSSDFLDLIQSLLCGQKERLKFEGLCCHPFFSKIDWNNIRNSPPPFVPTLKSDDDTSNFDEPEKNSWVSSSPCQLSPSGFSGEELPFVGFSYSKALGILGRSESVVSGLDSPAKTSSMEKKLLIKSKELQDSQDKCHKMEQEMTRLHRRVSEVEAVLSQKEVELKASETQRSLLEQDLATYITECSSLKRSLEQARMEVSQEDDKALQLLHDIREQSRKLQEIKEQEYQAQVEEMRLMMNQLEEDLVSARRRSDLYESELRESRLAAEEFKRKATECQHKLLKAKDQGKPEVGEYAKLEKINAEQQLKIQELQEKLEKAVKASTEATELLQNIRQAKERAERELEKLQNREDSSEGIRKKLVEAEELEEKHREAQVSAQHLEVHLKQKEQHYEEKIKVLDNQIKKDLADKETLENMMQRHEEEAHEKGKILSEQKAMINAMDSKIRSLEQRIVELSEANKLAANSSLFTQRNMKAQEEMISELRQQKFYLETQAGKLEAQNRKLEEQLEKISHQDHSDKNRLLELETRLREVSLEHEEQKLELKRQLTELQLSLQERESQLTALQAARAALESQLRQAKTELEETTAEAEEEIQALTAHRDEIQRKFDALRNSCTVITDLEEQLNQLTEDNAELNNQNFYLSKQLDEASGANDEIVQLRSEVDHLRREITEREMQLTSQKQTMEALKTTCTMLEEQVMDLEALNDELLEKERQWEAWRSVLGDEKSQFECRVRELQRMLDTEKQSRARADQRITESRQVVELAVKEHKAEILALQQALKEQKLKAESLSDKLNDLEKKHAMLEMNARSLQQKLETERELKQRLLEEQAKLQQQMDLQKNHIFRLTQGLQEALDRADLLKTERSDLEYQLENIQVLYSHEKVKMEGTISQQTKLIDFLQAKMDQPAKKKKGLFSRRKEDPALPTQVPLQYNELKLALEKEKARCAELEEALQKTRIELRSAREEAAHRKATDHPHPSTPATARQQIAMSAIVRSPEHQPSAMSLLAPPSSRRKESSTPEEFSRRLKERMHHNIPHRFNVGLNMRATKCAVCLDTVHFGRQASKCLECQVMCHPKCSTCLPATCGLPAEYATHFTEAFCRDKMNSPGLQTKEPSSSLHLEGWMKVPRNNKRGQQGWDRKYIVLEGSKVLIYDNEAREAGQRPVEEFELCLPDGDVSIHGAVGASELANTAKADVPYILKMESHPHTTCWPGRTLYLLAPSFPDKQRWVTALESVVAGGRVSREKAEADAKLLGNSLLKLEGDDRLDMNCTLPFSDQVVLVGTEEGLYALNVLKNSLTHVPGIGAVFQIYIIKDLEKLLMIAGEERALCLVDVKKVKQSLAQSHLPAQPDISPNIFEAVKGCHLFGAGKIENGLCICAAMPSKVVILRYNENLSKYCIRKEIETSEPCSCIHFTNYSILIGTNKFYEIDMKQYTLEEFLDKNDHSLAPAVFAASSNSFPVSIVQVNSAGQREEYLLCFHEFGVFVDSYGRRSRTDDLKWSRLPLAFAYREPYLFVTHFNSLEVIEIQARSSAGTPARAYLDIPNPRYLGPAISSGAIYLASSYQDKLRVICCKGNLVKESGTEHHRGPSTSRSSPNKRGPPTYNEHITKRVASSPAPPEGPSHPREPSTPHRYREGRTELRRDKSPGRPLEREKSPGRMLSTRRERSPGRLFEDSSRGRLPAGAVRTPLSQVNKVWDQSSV"}
{"data": "Series 1", "read-out": "AlphaScreen signal", "technique": "AlphaScreen counter screen", "medium": "His6 peptide without bromodomain", "concentration": "50 µM", "setting": "assay interference check"}
{"SMILES": "N#CCNC(=O)c1ccc(-c2ccnc(Nc3ccc(N4CCOCC4)cc3)n2)cc1", "inhibition [%]": 20.2}
{"SMILES": "O=c1cc(N2CCOCC2)oc2c1ccc1ccccc12", "inhibition [%]": 9.95}
{"SMILES": "C[S+]([O-])c1ccc(-c2nc(-c3ccncc3)c(-c3ccc(F)cc3)[nH]2)cc1 (stereo not drawn)", "inhibition [%]": 35.5}
{"data": "Series 2", "target": "Phosphate system positive regulatory protein PHO4, full length, GST-tagged (PHO4, Saccharomyces cerevisiae, UniProt P07270, residues 1-312)", "technique": "competition protein-binding microarray", "molecule type": "double-stranded DNA, one strand shown", "medium": "in vitro", "concentration": "2 µM", "setting": "whole 60-bp probe, lowest competitor level", "together with": "Cbf1 competitor, 0.05 µM", "direction": "higher = stronger binding", "all sequences stand within": "… GTCTTGATTCGCTTGACGCTGCTG", "Residues (chain)": "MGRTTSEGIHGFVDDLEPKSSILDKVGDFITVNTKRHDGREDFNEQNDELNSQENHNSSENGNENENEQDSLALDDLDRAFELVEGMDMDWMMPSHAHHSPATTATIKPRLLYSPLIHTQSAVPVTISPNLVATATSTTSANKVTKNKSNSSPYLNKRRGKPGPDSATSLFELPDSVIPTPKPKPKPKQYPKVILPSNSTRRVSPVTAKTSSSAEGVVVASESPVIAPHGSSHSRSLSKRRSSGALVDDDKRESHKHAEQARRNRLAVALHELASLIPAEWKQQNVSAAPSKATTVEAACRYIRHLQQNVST"}
{"Oligonucleotide": "CTGTATGTGTGGCGTCACAAATTAGGGGACTCTGGC", "fluorescence intensity": "5720 a.u."}
{"Oligonucleotide": "CATACCCAACCTTGTTGGGTGGGTGAAGATATTTGT", "fluorescence intensity": "3860 a.u."}
{"Oligonucleotide": "AAATTACTAAGTTTTCACGTGCAATACCCCGTATGA", "fluorescence intensity": "16300 a.u."}
{"Oligonucleotide": "CTTCTGTAAATTTTTCACGTGGAATGACGCGCCCCG", "fluorescence intensity": "12000 a.u."}
{"Oligonucleotide": "GCTAATGCCCATTTGCACGTTCTAATAATGAAGGTC", "fluorescence intensity": "11300 a.u."}
{"Oligonucleotide": "ACATTGACGTATTTTCACGTGATGGGCCTCACTGCG", "fluorescence intensity": "11100 a.u."}
{"Oligonucleotide": "AAATTACTAAGTTGGCCTGTGGGTGACGCCGTATGA", "fluorescence intensity": "4320 a.u."}
{"Oligonucleotide": "CAAACGGCATTCCGTCACGTACGATAACTTGATCCT", "fluorescence intensity": "5260 a.u."}
{"data": "Series 3", "cell line": "Huh-7", "concentration": "10 µM", "time": "24 h"}
{"SMILES": "CCC(=O)NCC[C@@H]1CCc2ccc3c(c21)CCO3", "viability [%]": 114}
{"SMILES": "O=C(Nc1ccc(C(=O)O)c(O)c1)c1ccccc1", "viability [%]": 95.6}
{"SMILES": "CC(C)(C)c1ccc(C(O)CCCN2CCC(C(O)(c3ccccc3)c3ccccc3)CC2)cc1 (stereo not drawn)", "viability [%]": 38.4}
{"data": "Series 4", "SMILES": "O=C(O)[C@@H]1[C@@H](Cn2nnc3ccccc3c2=O)CC[C@H]1C(=O)c1ccc(OCCC2CCOCC2)cc1", "read-out": "cell-free assay", "technique": "competition with immobilised ligand", "concentration": "1 µM"}
{"target": "DYRK1A (Homo sapiens, UniProt Q13627)", "remaining binding": "94%"}
{"target": "FLT3 (Homo sapiens, UniProt P36888, F691L/ITD)", "remaining binding": "100%"}
{"target": "CIT (Homo sapiens, UniProt O14578)", "remaining binding": "92%"}
{"target": "Tyrosine-protein kinase ABL1, phosphorylated (ABL1, Homo sapiens, UniProt P00519)", "remaining binding": "79%"}
{"target": "MAPK9 (Homo sapiens, UniProt P45984)", "remaining binding": "100%"}
{"target": "BMX (Homo sapiens, UniProt P51813)", "remaining binding": "100%"}
{"target": "Ribosomal protein S6 kinase alpha-4, N-terminal kinase domain (RPS6KA4, Homo sapiens, UniProt O75676)", "remaining binding": "100%"}
{"target": "LTK (Homo sapiens, UniProt P29376)", "remaining binding": "100%"}
{"target": "Receptor-type tyrosine-protein kinase FLT3, autoinhibited (FLT3, Homo sapiens, UniProt P36888)", "remaining binding": "86%"}
{"target": "MAPK6 (Homo sapiens, UniProt Q16659)", "remaining binding": "100%"}
{"target": "MAP3K14 (Homo sapiens, UniProt Q99558)", "remaining binding": "100%"}
{"target": "ULK1 (Homo sapiens, UniProt O75385)", "remaining binding": "100%"}
{"target": "PIK3CA (Homo sapiens, UniProt P42336, C420R)", "remaining binding": "100%"}
{"target": "NEK7 (Homo sapiens, UniProt Q8TDX7)", "remaining binding": "100%"}
{"target": "CDK9 (Homo sapiens, UniProt P50750)", "remaining binding": "100%"}
{"target": "Tyrosine-protein kinase JAK2, JH1 (JAK2, Homo sapiens, UniProt O60674)", "remaining binding": "74%"}
{"data": "Series 5", "cell line": "mouse MPNST tumor cells", "technique": "high-content nuclear imaging", "measured": "cell number", "concentration": "10 µM", "time": "12 h", "setting": "mean of 2 replicates", "reference": "plate mean", "direction": "higher = more cells"}
{"SMILES": "CC(=O)NC1C(OC(C)C)OC(COC(C)=O)C(OC(C)=O)C1OC(C)=O (stereo not drawn)", "nuclei count": "0.198 z-score"}
{"SMILES": "CCOc1ccc(NC(C)=O)cc1", "nuclei count": "0.0673 z-score"}
{"SMILES": "CN1CCC(=C2c3ccccc3CCc3cccnc32)CC1", "nuclei count": "4.29 z-score and 1.59 z-score"}
{"data": "Mixed results"}
{"Compound": "CC(=O)N[C@@H](Cc1c[nH]c2ccccc12)C(=O)N[C@@H](CCC(=O)C=[N+]=[N-])C(=O)OC(C)C", "system": "C57BL/6 CES1-/- mice, MC-38 tumour", "conditions": "dose not given, day 15 after inoculation, together with: anti-PD-1", "how to read": "reference: initial", "measurement": "body weight", "value": "96.8% and 96.2% and 99.6% and 98.2% and 96.1% and 95.2% and 95.9%"}
{"Compound": "CC(C)n1cnc(-c2ccc(F)cc2)c1-c1ncc(C(=O)Nc2ccc(N3CCN(C)CC3)cc2)[nH]1", "system": "human, idiopathic pulmonary fibrosis", "conditions": "60 mg once daily, trial, treatment-emergent", "measurement": "patients with hepatic steatosis", "value": "0%"}
{"Compound": "c1cnc(N2CCN(Cc3ccc4c(c3)OCO4)CC2)nc1", "tested on": "A-375", "conditions": "100 µM, 36 h", "measurement": "viability", "value": "83.2%"}
{"note": "Some of these lines once more (series 2):"}
{"Oligonucleotide": "GCTAATGCCCATTTGCACGTTCTAATAATGAAGGTC", "fluorescence intensity": "11300 a.u."}
{"Oligonucleotide": "ACATTGACGTATTTTCACGTGATGGGCCTCACTGCG", "fluorescence intensity": "11100 a.u."}
{"Oligonucleotide": "CATACCCAACCTTGTTGGGTGGGTGAAGATATTTGT", "fluorescence intensity": "3860 a.u."}
{"Oligonucleotide": "AAATTACTAAGTTGGCCTGTGGGTGACGCCGTATGA", "fluorescence intensity": "4320 a.u."}
